# Experimental data of several laboratories.
# A part holds a random share of what one study measured.
# UniProt P50613, sequence (whole entry, looked up): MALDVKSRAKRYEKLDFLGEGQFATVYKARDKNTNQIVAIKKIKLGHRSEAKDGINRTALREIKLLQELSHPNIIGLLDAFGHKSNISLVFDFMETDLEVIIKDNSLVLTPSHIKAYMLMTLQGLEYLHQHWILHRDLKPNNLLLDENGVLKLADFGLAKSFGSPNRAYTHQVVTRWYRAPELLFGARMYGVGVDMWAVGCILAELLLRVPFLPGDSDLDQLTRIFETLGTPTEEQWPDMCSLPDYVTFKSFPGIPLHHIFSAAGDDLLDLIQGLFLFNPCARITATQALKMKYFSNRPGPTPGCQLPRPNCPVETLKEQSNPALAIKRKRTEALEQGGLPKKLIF
# UniProt P42684, sequence (whole entry, looked up): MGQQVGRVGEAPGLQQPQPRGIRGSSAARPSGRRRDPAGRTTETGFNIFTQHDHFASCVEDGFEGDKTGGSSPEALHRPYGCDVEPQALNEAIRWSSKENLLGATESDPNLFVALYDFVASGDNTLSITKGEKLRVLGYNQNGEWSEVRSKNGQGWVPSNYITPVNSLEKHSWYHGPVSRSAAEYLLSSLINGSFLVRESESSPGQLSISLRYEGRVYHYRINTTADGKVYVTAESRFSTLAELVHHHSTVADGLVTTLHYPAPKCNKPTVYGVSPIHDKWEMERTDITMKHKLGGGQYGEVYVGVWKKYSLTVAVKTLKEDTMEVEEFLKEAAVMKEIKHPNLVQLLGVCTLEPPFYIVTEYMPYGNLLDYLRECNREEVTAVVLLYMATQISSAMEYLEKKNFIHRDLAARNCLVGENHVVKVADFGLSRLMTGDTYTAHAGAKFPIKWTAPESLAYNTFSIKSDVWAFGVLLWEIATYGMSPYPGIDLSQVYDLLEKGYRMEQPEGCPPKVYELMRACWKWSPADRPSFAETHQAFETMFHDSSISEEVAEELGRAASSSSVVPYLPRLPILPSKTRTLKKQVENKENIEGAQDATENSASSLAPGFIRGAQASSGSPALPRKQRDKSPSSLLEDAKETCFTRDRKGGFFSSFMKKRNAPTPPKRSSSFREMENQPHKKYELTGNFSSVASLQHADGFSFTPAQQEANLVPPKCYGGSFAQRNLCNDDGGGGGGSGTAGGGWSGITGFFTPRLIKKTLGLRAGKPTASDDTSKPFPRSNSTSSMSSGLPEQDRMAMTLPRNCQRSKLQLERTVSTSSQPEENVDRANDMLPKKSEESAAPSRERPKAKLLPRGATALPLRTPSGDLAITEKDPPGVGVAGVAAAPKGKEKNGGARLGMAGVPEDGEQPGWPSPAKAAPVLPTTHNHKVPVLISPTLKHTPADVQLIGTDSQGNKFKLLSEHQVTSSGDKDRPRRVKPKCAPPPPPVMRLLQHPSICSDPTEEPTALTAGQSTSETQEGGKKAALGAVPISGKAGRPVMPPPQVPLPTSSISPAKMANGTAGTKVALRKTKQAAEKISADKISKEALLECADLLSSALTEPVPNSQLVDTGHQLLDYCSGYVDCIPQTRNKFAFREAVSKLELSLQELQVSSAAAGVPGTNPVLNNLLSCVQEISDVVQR
# UniProt O75385, sequence (whole entry, looked up): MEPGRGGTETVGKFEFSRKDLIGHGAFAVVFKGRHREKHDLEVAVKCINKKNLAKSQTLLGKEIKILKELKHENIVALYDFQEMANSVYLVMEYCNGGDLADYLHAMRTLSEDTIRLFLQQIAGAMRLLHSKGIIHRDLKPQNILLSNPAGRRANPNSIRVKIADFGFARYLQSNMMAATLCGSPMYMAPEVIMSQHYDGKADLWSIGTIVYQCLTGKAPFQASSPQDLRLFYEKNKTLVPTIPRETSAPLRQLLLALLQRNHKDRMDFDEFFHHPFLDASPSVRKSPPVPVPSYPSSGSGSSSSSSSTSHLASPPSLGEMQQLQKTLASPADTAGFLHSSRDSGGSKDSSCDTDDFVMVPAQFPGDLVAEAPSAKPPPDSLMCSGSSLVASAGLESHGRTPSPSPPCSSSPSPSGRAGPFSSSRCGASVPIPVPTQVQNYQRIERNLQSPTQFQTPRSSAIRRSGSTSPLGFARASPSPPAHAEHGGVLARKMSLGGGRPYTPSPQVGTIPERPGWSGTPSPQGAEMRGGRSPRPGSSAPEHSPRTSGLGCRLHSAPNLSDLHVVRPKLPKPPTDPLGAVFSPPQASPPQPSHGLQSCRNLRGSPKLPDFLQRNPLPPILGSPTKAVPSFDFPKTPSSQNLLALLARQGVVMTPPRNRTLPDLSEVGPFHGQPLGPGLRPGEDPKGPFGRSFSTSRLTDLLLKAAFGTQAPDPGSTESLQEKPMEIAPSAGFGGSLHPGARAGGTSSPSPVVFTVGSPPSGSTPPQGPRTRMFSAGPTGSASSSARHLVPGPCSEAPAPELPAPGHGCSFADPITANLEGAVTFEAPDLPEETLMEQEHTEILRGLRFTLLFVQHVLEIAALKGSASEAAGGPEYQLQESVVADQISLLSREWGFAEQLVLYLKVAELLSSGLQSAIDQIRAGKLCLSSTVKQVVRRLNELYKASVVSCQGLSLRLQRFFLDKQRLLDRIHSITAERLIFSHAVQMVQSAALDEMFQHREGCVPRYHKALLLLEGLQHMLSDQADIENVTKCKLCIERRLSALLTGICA
# UniProt O75460, sequence (whole entry, looked up): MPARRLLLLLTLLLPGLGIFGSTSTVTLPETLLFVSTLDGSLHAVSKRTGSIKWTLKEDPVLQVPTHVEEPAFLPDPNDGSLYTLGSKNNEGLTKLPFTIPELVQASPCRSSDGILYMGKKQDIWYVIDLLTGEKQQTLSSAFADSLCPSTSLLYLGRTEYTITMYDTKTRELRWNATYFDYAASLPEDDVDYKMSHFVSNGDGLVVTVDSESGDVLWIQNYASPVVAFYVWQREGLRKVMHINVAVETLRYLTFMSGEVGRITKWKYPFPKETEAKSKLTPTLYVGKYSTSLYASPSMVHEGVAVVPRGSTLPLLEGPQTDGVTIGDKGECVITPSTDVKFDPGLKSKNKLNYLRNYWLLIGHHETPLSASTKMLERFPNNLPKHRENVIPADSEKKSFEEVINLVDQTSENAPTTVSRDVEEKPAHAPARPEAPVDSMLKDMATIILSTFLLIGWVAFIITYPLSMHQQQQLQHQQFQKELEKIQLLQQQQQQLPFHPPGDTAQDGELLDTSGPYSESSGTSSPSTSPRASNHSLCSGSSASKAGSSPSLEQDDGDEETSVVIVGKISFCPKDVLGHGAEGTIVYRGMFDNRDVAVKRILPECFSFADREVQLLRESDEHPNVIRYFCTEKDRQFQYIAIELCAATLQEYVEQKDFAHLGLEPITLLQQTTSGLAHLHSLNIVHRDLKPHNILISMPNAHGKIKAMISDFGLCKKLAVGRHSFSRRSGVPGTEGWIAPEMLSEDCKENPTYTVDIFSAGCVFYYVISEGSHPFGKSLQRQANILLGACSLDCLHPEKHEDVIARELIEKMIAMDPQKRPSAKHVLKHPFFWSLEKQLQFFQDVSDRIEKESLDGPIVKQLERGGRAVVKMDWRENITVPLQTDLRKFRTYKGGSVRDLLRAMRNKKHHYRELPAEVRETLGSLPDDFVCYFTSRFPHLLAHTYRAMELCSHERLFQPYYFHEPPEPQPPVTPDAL

# Block 1 — effect on: thermal unfolding; technique: differential scanning fluorimetry; tested at: 5.5 µM; reading: higher = more unfolded
# SMILES: C[C@@H]1CN(c2ccc(-c3cc(C(=O)NCCOCCOCCOCCOCCOCCOCCNC(=O)/C=C/c4[nH]cc(C(=O)N[C@@H](CC(N)=O)c5ccc(F)c(Cl)c5)c4-c4ccc(Cl)cc4F)ccc3F)cc2NC(=O)c2ccc(F)cc2C(F)(F)F)C[C@H](C)N1C
# WDR5: WD repeat-containing protein 5 (WDR5, Homo sapiens, UniProt P61964)
# DCAF1: DDB1- and CUL4-associated factor 1 (DCAF1, Homo sapiens, UniProt Q9Y4B6)
# UniProt Q9Y4B6, sequence (whole entry, looked up): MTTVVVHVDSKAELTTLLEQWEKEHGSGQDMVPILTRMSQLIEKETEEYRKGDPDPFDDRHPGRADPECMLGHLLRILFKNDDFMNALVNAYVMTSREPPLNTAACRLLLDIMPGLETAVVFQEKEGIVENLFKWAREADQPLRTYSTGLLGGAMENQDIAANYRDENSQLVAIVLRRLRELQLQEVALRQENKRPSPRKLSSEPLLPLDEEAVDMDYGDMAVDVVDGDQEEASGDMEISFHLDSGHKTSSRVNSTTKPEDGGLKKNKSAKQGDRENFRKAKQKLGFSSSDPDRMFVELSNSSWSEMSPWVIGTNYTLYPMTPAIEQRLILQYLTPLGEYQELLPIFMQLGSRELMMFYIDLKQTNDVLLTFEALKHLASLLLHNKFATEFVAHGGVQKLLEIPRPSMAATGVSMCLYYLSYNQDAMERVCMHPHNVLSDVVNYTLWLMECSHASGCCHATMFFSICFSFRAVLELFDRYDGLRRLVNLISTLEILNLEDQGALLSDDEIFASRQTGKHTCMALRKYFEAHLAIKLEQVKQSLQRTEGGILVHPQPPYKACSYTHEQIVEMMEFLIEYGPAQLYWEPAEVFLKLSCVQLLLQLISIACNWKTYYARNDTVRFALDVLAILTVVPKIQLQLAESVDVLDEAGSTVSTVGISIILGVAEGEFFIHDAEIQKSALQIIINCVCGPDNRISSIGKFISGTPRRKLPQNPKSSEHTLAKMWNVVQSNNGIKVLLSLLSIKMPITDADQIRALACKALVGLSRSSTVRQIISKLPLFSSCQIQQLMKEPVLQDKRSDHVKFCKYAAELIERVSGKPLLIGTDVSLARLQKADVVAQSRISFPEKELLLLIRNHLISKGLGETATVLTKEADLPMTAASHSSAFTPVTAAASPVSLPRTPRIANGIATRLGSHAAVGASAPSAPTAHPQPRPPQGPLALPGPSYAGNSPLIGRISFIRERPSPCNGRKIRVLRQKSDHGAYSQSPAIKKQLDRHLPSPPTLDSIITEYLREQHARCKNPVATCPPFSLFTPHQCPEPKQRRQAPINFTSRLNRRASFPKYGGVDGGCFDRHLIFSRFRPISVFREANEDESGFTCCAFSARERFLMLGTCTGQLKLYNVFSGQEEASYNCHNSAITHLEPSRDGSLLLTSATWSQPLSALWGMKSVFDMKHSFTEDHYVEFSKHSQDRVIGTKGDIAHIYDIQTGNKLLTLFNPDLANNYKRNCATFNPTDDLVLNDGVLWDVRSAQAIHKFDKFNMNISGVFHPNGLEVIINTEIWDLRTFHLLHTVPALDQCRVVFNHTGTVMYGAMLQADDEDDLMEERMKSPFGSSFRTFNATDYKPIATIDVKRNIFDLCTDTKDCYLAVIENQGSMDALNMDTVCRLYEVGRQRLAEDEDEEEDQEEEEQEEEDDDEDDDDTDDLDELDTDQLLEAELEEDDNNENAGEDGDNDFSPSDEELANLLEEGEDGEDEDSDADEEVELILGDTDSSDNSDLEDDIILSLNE
target,temperature,SYPRO Orange fluorescence [a.u.]
WDR5,63.41 °C,15500
WDR5,36.6 °C,13900
DCAF1,33.6 °C,9430
DCAF1,64.41 °C,53900
DCAF1,59.41 °C,44900
WDR5,26.2 °C,13200
WDR5,36.4 °C,13900

# Block 2
# Compound: Cc1ccc(O)c(C)c1-c1cnc2[nH]c(-c3cnc(N4CCC(CN5CCN(c6ccc7c(c6)C(=O)N(C6CCC(=O)NC6=O)C7=O)CC5)CC4)nc3)cc2c1C#N (stereo not shown)
# Target: Membrane-associated tyrosine- and threonine-specific cdc2-inhibitory kinase (PKMYT1, Homo sapiens, UniProt Q99640)
# Target sequence (Q99640 1-499): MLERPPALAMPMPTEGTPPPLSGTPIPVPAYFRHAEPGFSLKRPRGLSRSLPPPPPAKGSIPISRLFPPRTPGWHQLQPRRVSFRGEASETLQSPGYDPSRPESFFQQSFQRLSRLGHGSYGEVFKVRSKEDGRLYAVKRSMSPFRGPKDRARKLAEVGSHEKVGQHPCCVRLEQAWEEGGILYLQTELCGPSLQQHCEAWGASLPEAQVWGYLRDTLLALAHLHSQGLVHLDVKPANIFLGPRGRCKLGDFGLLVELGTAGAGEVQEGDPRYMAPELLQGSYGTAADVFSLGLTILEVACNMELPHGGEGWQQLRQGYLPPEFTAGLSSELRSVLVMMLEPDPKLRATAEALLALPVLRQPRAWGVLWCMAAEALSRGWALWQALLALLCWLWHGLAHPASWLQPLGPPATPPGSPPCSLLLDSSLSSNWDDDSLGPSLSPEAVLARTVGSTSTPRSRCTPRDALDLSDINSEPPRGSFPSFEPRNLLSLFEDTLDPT
effect on,mode,technique,tested at,inhibition [%]
,,,0.3333 µM,102
,,,0.1111 µM,99.1
cell-free assay,inhibitor,TR-FRET,12.35 nM,84.2
cell-free assay,inhibitor,TR-FRET,51 pM,-3.65
,,,0.00412 µM,43.2
cell-free assay,inhibitor,TR-FRET,152 pM,0.6
,,,0.03704 µM,96.8
,,,1 µM,99.7
cell-free assay,inhibitor,TR-FRET,37.04 nM,95.3
cell-free assay,inhibitor,TR-FRET,1.37 nM,18.7
cell-free assay,inhibitor,TR-FRET,460 pM,0.66
cell-free assay,inhibitor,TR-FRET,1 µM,99.3

# Block 3 — effect on: binding; technique: competition with immobilised ligand; tested at: 1 µM
# Structure (SMILES): COc1cc(-c2nc3ccc(C(=O)NCCCN4CCN(c5cccc(C)c5C)CC4)cc3n2C2CCC2)cc(OC)c1OC
target,remaining binding [%]
"Receptor tyrosine-protein kinase erbB-4 (ERBB4, Homo sapiens, UniProt Q15303)",97
"Serine/threonine-protein kinase 32A (STK32A, Homo sapiens, UniProt Q8WU08)",98
"Serine/threonine-protein kinase/endoribonuclease IRE1 (ERN1, Homo sapiens, UniProt O75460)",85
"Phosphatidylinositol 4,5-bisphosphate 3-kinase catalytic subunit alpha isoform (PIK3CA, Homo sapiens, UniProt P42336, E545A)",100
"Serine/threonine-protein kinase ULK1 (ULK1, Homo sapiens, UniProt O75385)",90
"AP2-associated protein kinase 1 (AAK1, Homo sapiens, UniProt Q2M2I8)",99
"Hepatocyte growth factor receptor (MET, Homo sapiens, UniProt P08581)",48
"Serine/threonine-protein kinase 32C (STK32C, Homo sapiens, UniProt Q86UX6)",100
"Tyrosine-protein kinase FRK (FRK, Homo sapiens, UniProt P42685)",67
"Tyrosine-protein kinase ABL2 (ABL2, Homo sapiens, UniProt P42684)",91
"Phosphatidylinositol 3-kinase C2 domain-containing subunit gamma (PIK3C2G, Homo sapiens, UniProt O75747)",46
"Serine/threonine-protein kinase TNNI3K (TNNI3K, Homo sapiens, UniProt Q59H18)",51
"Cyclin-dependent kinase 7 (CDK7, Homo sapiens, UniProt P50613)",92
"Phosphatidylinositol 4-kinase beta (PI4KB, Homo sapiens, UniProt Q9UBF8)",91
"Activin receptor type-2A (ACVR2A, Homo sapiens, UniProt P27037)",96
"Tyrosine-protein kinase Mer (MERTK, Homo sapiens, UniProt Q12866)",73
"Serine/threonine-protein kinase LATS2 (LATS2, Homo sapiens, UniProt Q9NRM7)",49

# Block 4 — setting: scaled
# Compound: CC[C@@]1(c2cccc(C(F)(F)F)c2)C2=C(Nc3n[nH]cc31)[C@H](F)C(C)(C)CC2=O (single isomer, unassigned)
medium,intrinsic clearance [mL/min/kg]
rat liver microsomes,56.1
human hepatocytes,9.2
rat hepatocytes,7.5
human liver microsomes,15.2

# A few entries again (block 4):
medium,intrinsic clearance [mL/min/kg]
rat liver microsomes,56.1
human liver microsomes,15.2
rat hepatocytes,7.5
